Assay results from different studies.
Protocols differ between the studies behind these lines. ± marks the error that the study gave.

COc1ccc2oc(C(=O)c3cc(OC)c(OC)c(OC)c3)c(N)c2c1
IC50 (L1210; cell growth or viability): 8.38 µM

O=C(NNc1ccccc1)c1cc2c(F)cc(F)cc2[nH]1
IC50 (KNS-42; cell growth or viability, resazurin; 72 h): 4.45 µM

CC(C)c1ccc2c(c1)CC[C@H]1[C@](C)(CN)CCC[C@]21C
IC50 (MEL-JUSO; cell growth or viability, MTS; 72 h): 3.07 µM

echistatin
IC50 (U-87 MG; cell adhesion to vitronectin; 2 h): 0.0009 ± 0.00023 µM

C#CC[C@H](NC(=O)[C@H](CO)NC(=O)CNC(=O)[C@H](CCCNC(=N)N)NC(=O)[C@@H](NC(=O)[C@H](CC(C)C)NC(=O)[C@@H]1CCCN1C(=O)[C@H](C)NC(=O)CNC(=O)[C@@H](NC(=O)[C@H](CO)NC(=O)[C@H](CCCNC(=N)N)NC(=O)CNC(=O)[C@H](CO)NC(=O)[C@H](CCCNC(=N)N)NC(=O)[C@H](CC(C)C)NC(=O)[C@H](CCCNC(=N)N)NC(=O)[C@H](CCCN)NC(=O)CNC(=O)[C@@H]1CCCN1C(=O)[C@@H]1CCCN1C(=O)[C@H](C)N)[C@@H](C)O)[C@@H](C)O)C(N)=O
IC50 (A2780cisR; cell growth or viability, MTT; 72 h, drug-resistant strain): > 200 µM

N.N.[Cl][Pt][Cl]
IC50 (HCC827; cell growth or viability, MTT; 72 h): 4.76 µM

N.N.[Cl][Pt][Cl]
IC50 (DU-145; cell growth or viability, MTT; 24 h): 79.2 µM

CC[C@H](C)[C@H](NC(=O)[C@@H](N)Cc1ccccc1)C(=O)NCC(=O)N[C@H](C(=O)N[C@@H](CC(C)C)C(=O)N[C@H](C(=O)N1CCC[C@H]1C(=O)N[C@@H](CC(C)C)C(=O)N[C@@H](C)C(=O)N[C@@H](CC(C)C)C(=O)NCC(=O)N[C@@H](C)C(=O)N[C@@H](CC(C)C)C(=O)N[C@H](C(=O)N[C@@H](CCCCN)C(=O)N[C@@H](CC(C)C)C(=O)N[C@@H](Cc1ccccc1)C(=O)N[C@@H](CCCCN)C(N)=O)[C@@H](C)O)[C@@H](C)CC)[C@@H](C)O
IC50 (K562; cell growth or viability, CCK-8; 24 h): 8.18 µM

CC(NC(=O)c1cc2ccc(Br)cc2[nH]1)C12CC3CC(CC(C3)C1)C2 (centres unmarked)
IC50 (KNS-42; cell growth or viability, resazurin; 72 h): 0.84 µM

O=C1C[C@H](O)CO1
IC50 (RAW264.7; NO release, inhibitor; LPS-stimulated): 20.9 µM

C/C=C1\NC(=O)[C@@H](NC(=O)[C@H](CCC(N)=O)NC(=O)CCCCC)[C@@H](C)OC(=O)[C@H](C(C)C)NC(=O)[C@H](Cc2ccc(O)cc2)N(C)C(=O)[C@H](Cc2ccccc2)N2C(=O)[C@H](CC[C@H]2O)NC1=O
IC50 (BEAS-2B; cell growth or viability, MTT; 24 h): 0.07 µM

COc1cc2c(c(OC)c1OC)-c1ccc(N)c(=O)cc1[C@@H](NC(C)=O)CC2
IC50 (HT-1080 MT1-MMP positive; cell viability, MTT; 96 h exposure): 0.031 ± 0.0013 µM

plicamycin
IC50 (GIST882; cell viability; 72 h): < 0.07 µM

COc1cccc2c1C(=O)c1c(O)c3c(c(O)c1C2=O)C[C@@](O)(C(=O)CO)C[C@@H]3O[C@H]1C[C@H](N)[C@H](O)[C@H](C)O1
IC50 (U-87 MG; cell growth or viability, SRB; 72 h): 0.4 µM

CC[C@@]1(O)C(=O)OCc2c1cc1n(c2=O)Cc2cc3ccccc3nc2-1
IC50 (GL261; cell growth or viability, CCK-8): 0.737 µM

Cc1c2ccncc2c(C)c2c1[nH]c1ccccc12
IC50 (MDA-MB-468; cytotoxicity, MTT; 3 h exposure, 96 h total): 1.9 ± 0.76 µM

COc1ccc(C2=C3C=C(Cl)C(c4ccc(OC)cc4)=[N+]3[B-](F)(F)n3c2cc(Cl)c3-c2ccc(NC(=S)NCCOCCOCCOCCC(=O)N[C@@H](CC(C)C)C(=O)N[C@@H](C)C(=O)N[C@@H](CCCNC(=N)N)C(=O)N[C@@H](CC(C)C)C(=O)N[C@@H](CC(C)C)C(=O)N[C@H](C(N)=O)[C@@H](C)O)cc2)cc1
IC50 (HEp-2; phototoxicity, viability; 24 h after irradiation, with: light 1.5 J/cm2 for 20 min): 74 µM

CCCCCc1cc(O)c(C/C=C(\C)CCC=C(C)C)c(O)c1
IC50 (SK-OV-3 (HER2-positive); cell viability, MTT; 72 h): 16.6 µM

Cc1sc2c(c1C)C(c1ccc(Cl)cc1)=N[C@@H](CC(=O)OC(C)(C)C)c1nnc(C)n1-2
IC50 (MOLM-14, parental and FLT3 D835Y or F691L; cell proliferation; 72 h): ~0.2 µM

C#Cc1cccc(Nc2ncnc3cc(OCCOC)c(OCCOC)cc23)c1
IC50 (SK-BR-3; cell death, MTT and trypan blue; 72 h): 5 µM

O=C(Cn1cnc2ccccc2c1=O)Nc1nccs1
IC50 (MDA-MB-231; cell growth or viability, crystal violet; 48 h): > 100 µM

N.N.[Cl][Pt][Cl]
IC50 (H1703; cell viability, MTT; 4 h, with: cimetidine 3 mmol/L): 70 ± 23.1 µM

O=C1C[C@@H](c2ccc(O)cc2)Oc2cc(O)ccc21
IC50 (MDA-MB-231 breast cancer; cell growth): 144 ± 14.5 µM

N.N.[Cl][Pt][Cl]
IC50 (HCT-116; cell viability, MTS; 48 h): 49.7 ± 1.3 µM

[H]/N=C(/NC)NCCC[C@H](N)C(=O)O
IC50 (mouse peritoneal cells; nitric oxide production, Griess; 24 h, with: LPS plus IFN-gamma): 35.1 µM

CC(=O)OC[C@H]1O[C@@H]([S-])[C@H](OC(C)=O)[C@@H](OC(C)=O)[C@@H]1OC(C)=O.CCP(CC)CC.[Au+]
IC50 (HEK293T ERR reporter line; cell viability, qHTS): 9.44 µM

CN[C@@](C)(C[18F])C(=O)O
tissue uptake (SCID mouse SK-OV-3 xenograft, heart; 30 min, post injection): 2.4 ± 0.6 %ID/g

COc1ccc(C[C@H]2NC(=O)/C=C/C[C@@H]([C@H](C)[C@@H](OC(=O)CN)[C@@H](Cl)c3ccccc3)OC(=O)[C@H](CC(C)C)OC(=O)C(C)(C)CNC2=O)cc1Cl
IC50 (M21-L human melanoma (integrin αv-negative); cell viability, MTT; 2 h treatment plus 70 h): 0.00014 ± 8e-05 µM

Cc1ccc(NC(=O)Cn2cnc3ccccc3c2=O)c(O)c1
IC50 (MDA-MB-231; cell growth or viability, crystal violet; 48 h): > 100 µM

Some of these lines once more:
C/C=C1\NC(=O)[C@@H](NC(=O)[C@H](CCC(N)=O)NC(=O)CCCCC)[C@@H](C)OC(=O)[C@H](C(C)C)NC(=O)[C@H](Cc2ccc(O)cc2)N(C)C(=O)[C@H](Cc2ccccc2)N2C(=O)[C@H](CC[C@H]2O)NC1=O
IC50 (BEAS-2B; cell growth or viability, MTT; 24 h): 0.07 µM

COc1cccc2c1C(=O)c1c(O)c3c(c(O)c1C2=O)C[C@@](O)(C(=O)CO)C[C@@H]3O[C@H]1C[C@H](N)[C@H](O)[C@H](C)O1
IC50 (U-87 MG; cell growth or viability, SRB; 72 h): 0.4 µM

Cc1c2ccncc2c(C)c2c1[nH]c1ccccc12
IC50 (MDA-MB-468; cytotoxicity, MTT; 3 h exposure, 96 h total): 1.9 ± 0.76 µM

CCCCCc1cc(O)c(C/C=C(\C)CCC=C(C)C)c(O)c1
IC50 (SK-OV-3 (HER2-positive); cell viability, MTT; 72 h): 16.6 µM

C#Cc1cccc(Nc2ncnc3cc(OCCOC)c(OCCOC)cc23)c1
IC50 (SK-BR-3; cell death, MTT and trypan blue; 72 h): 5 µM
